Experimental data from different studies.
Lines come from different studies, so protocols differ. “And” joins repeats or separate records; there may be more than shown. ± marks the error that the study gave.
IDE: Insulin-degrading enzyme (IDE, Homo sapiens, UniProt P14735)
Methyl-accepting chemotaxis protein CtaA sensing domain: Methyl-accepting chemotaxis protein CtaA, sensing domain (Pseudomonas fluorescens, UniProt Q3K7T6)
PLA2G6: 85/88 kDa calcium-independent phospholipase A2 (PLA2G6, Homo sapiens, UniProt O60733)
Neuropeptide FF receptor 2: Neuropeptide FF receptor 2 (Homo sapiens, UniProt Q9Y5X5)

Compound | target | test | system | setting | quantity | value
CCOC(=O)Nc1ccc(SCc2cc(OC)cc(OC)c2)nc1N | Voltage-gated potassium channel, KQT; KCNQ2(Kv7.2)/KCNQ3(Kv7.3) (KCNQ3/KCNQ2, Homo sapiens, UniProt O43525+O43526) | thallium flux, opener, fluorescence thallium flux | HEK293 expressing KV7.2/3 | 30 min | EC50 | > 10 µM
Cc1ccc(S(=O)(=O)Nc2cccn(O)c2=S)s1 | IDE | substrate degradation, fluorescence polarisation |  | mean of physiological substrates | Ki | 10 µM
C[C@@H]1CN(c2ccc(-c3cc(C(=O)NCCOCCOCCOCCOCCNC(=O)/C=C/c4[nH]cc(C(=O)N[C@@H](CC(N)=O)c5ccc(F)c(Cl)c5)c4-c4ccc(Cl)cc4F)ccc3F)cc2NC(=O)c2c[nH]c(=O)cc2C(F)(F)F)C[C@H](C)N1C | WDR5/DCAF1 (Homo sapiens, UniProt P61964+Q9Y4B6) | degrader, measured: HiBiT-WDR5 | MV4-11 expressing HiBiT-WDR5 | 24 h | DC50 | 0.288 ± 0.137 µM
NC(=O)[C@@H]1CCCC[C@@H]1C(=O)Nc1ccc(Cl)c(Cl)c1 | Grm2/Grm4 (Rattus norvegicus, UniProt P31421+P31423) | positive allosteric modulator, thallium flux | HEK293 with GIRK | added: EC20 glutamate | EC50 | 1.9 µM
Cc1cc(NS(=O)(=O)c2cccs2)c(=S)n(O)c1 | IDE | substrate degradation, fluorescence polarisation |  | mean of physiological substrates | Ki | 11 µM
CCCC(=O)OCC | Or22a (Drosophila melanogaster, UniProt P81909) | neuronal calcium response, agonist, in vivo calcium imaging | antennal neurons | headspace vapour concentration | EC50 | 36.5 ppm
COc1ccc(CN[C@H]2C[C@@H](C(=O)NCCc3ccc(N(C)C)cc3)N(Cc3ccccc3Cl)C2)cc1 | Neuropeptide FF receptor 1 (NPFFR1, Homo sapiens, UniProt Q9GZQ6) | calcium mobilization, antagonist | CHO | 15 min, added: NPFF | Kb | 1.2 ± 0.25 µM
CC(C)C[C@H](N)C(=O)O | Methyl-accepting chemotaxis protein CtaA sensing domain | binding, thermal shift, zero heat capacity |  |  | Kd | 26 ± 7 µM
Cc1cc(NC(=O)CS(=O)(=O)c2cn(Cc3ccccc3Cl)c3ccccc23)no1 | Muscarinic acetylcholine receptor M1 (Chrm1, Rattus norvegicus, UniProt P08482) | calcium signal, agonist |  |  | EC50 | > 13 µM
CCC[C@H]1OC(=O)[C@@H]1CCCc1ccc(OC)cc1 (racemic) | PLA2G6 | enzyme activity, inhibitor, mixed micelle |  | 50% inhibition | XI(50) | 0.00019 mole fraction
O=C(O)c1cc(NC(=O)C2CC2c2ccccc2)ccc1O (centres unmarked) | GTPase KRas (KRAS, Homo sapiens, UniProt P01116, G12D) | microscale thermophoresis |  | second low-affinity site, added: GNP-bound | Kd | 2.5 µM
COc1ccc(CN[C@H]2C[C@@H](C(=O)NCCc3ccc(C(C)=O)cc3)N(Cc3ccccc3Cl)C2)cc1 | Neuropeptide FF receptor 2 | calcium signal, antagonist, fluorescence |  |  | Kb | > 10 µM
C[C@H](CCC(=O)NCCS(=O)(=O)O)[C@H]1CC[C@H]2[C@@H]3CC[C@@H]4C[C@H](O)CC[C@]4(C)[C@H]3CC[C@]12C | Hepatic sodium/bile acid cotransporter (SLC10A1, Homo sapiens, UniProt Q14973) | transporter uptake, inhibitor, radiometric |  |  | Ki | ~5 µM and 4.28 µM
COc1ccc(CN[C@H]2C[C@@H](C(=O)NCCc3ccc(NC(C)=O)cc3)N(Cc3ccccc3Cl)C2)cc1 | Neuropeptide FF receptor 2 | calcium signal, antagonist, fluorescence |  |  | Kb | > 10 µM
C[C@H](N)C(=O)O | Methyl-accepting chemotaxis protein CtaA (Pseudomonas fluorescens, UniProt Q3K7T6) | binding, ITC |  |  | Kd | 7.1 ± 0.4 µM
On1ccccc1=S | IDE | substrate degradation, inhibitor |  | mean of insulin, Aβ, substrate V | Ki | 86 µM
CC(C)[C@H](N)C(=O)O | Methyl-accepting chemotaxis protein CtaA sensing domain | binding, thermal shift, zero heat capacity |  |  | Kd | 4 ± 0.4 µM
O=S(=O)(Nc1cccn(O)c1=S)C1CC1 | IDE | substrate degradation, inhibitor |  | mean of insulin, Aβ, substrate V | Ki | 45 µM
CNC(=O)c1ccc(CCNC(=O)[C@@H]2C[C@H](NCc3ccc(OC)cc3)CN2Cc2ccccc2Cl)cc1 | Neuropeptide FF receptor 2 | calcium signal, antagonist, fluorescence |  |  | Kb | > 10 µM
O=S(=O)(Nc1cccn(O)c1=S)c1cccc2nsnc12 | IDE | substrate degradation, fluorescence polarisation |  | mean of physiological substrates | Ki | 13 µM
CCC[C@@H]1OC(=O)[C@@H]1CCCCc1ccc2ccccc2c1 (racemic) | PLA2G6 | enzyme activity, inhibitor, lipidomics mixed micelle |  |  | XI(50) | 0.0021 mole fraction
N[C@@H](CO)C(=O)O | Methyl-accepting chemotaxis protein CtaA sensing domain | binding, thermal shift, unfolding equilibrium |  | 25 °C | Kd | 5 ± 2 µM
O=S(=O)(Nc1ccn(O)c(=S)c1)c1cccs1 | IDE | substrate degradation, inhibitor |  | mean of insulin, Aβ, substrate V | Ki | 17 µM
Cc1ncsc1-c1ccc(CNC(=O)[C@@H]2C[C@@H](O)CN2C(=O)[C@@H](NC(=O)CCCNC(=O)c2ccc(-c3cnc(NCc4ccco4)n4cnnc34)cc2)C(C)(C)C)cc1 | Polycomb protein EED (EED, Homo sapiens, UniProt O75530) | degrader, western blot | HeLa | 24 h | DC50 | 0.79 ± 0.14 µM
O=S(=O)(Nc1cccn(O)c1=S)c1ccc(Br)s1 | IDE | substrate degradation, inhibitor |  | mean of insulin, Aβ, substrate V | Ki | 7 µM
CC(C)C[C@H](NC(=O)[C@H](CCCNC(=N)N)NC(=O)[C@H](CC(C)C)NC(=O)[C@H](CO)NC(=O)[C@@H]1CCCN1C(=O)[C@@H](N)CO)C(=O)N[C@@H](CCCNC(=N)N)C(=O)N[C@@H](Cc1ccccc1)C(N)=O | Short neuropeptide F receptor (Drosophila melanogaster, UniProt Q9VW75) | calcium mobilization, agonist | HEK-293T transfected, Gα16 | 37 °C | EC50 | 0.00589 ± 0.00374 µM
Nc1ncnc2c1ncn2[C@@H]1O[C@H](COP(=O)(O)OP(=O)(O)OP(=O)(O)O)[C@@H](O)[C@H]1O | tRNA(His) guanylyltransferase (THG1, Saccharomyces cerevisiae, UniProt P53215, K44A) | tRNA(His) adenylylation, substrate, single-turnover kinetics |  | pH 6.0, room temperature, added: p-tRNA(His) | Kd | 4000 ± 1000 µM
Nc1ncnc2c1ncn2[C@@H]1O[C@H](COP(=O)(O)O)[C@@H](O)[C@H]1O | 5'-AMP-activated protein kinase subunit gamma-1, with alpha1 beta2 (PRKAG1, Homo sapiens, UniProt P54619) | conformational change, AlphaScreen |  | α1β2γ1 AMPK | EC50 | 0.95 µM
Nc1ncnc2c1ncn2[C@@H]1O[C@H](COP(=O)(O)OP(=O)(O)OC[C@H]2O[C@@H](O)C(O)[C@H]2O)C(O)[C@@H]1OP(=O)(O)O (some centres unmarked) | TRPM2 (Nematostella vectensis, UniProt A7T1N0) | channel activation, agonist, inside-out patch clamp | Xenopus oocytes | -20 mV, added: 125 µM Ca2+ | EC50 | 0.42 ± 0.04 µM

A few entries again:
Compound | target | test | system | setting | quantity | value
CNC(=O)c1ccc(CCNC(=O)[C@@H]2C[C@H](NCc3ccc(OC)cc3)CN2Cc2ccccc2Cl)cc1 | Neuropeptide FF receptor 2 | calcium signal, antagonist, fluorescence |  |  | Kb | > 10 µM
O=S(=O)(Nc1cccn(O)c1=S)c1cccc2nsnc12 | IDE | substrate degradation, fluorescence polarisation |  | mean of physiological substrates | Ki | 13 µM
CCC[C@@H]1OC(=O)[C@@H]1CCCCc1ccc2ccccc2c1 (racemic) | PLA2G6 | enzyme activity, inhibitor, lipidomics mixed micelle |  |  | XI(50) | 0.0021 mole fraction
N[C@@H](CO)C(=O)O | Methyl-accepting chemotaxis protein CtaA sensing domain | binding, thermal shift, unfolding equilibrium |  | 25 °C | Kd | 5 ± 2 µM
